Published values from different studies.
“And” joins repeats or separate records; there may be more than shown. ± gives the spread as reported.

SMILES	test	system	setting	scale	measurement	value
N#Cc1ccc2c(c1)[C@H]1CCCN(C(=O)c3ccc4[nH]cnc4c3)[C@H]1C2		human, male	20 mg, day 15		DHEA-S level	7 µmol/L
COc1ccc2c(c1)CN(C(=O)CCN1CCC(Cc3ccccc3)CC1)CC[S@@+]2[O-]	telemetry	conscious dog	intravenous, 2 mg/kg, 2 h		diastolic blood pressure	83 ± 15 mmHg
C=CCn1c(=O)c2cnc(Nc3ccc(N4CCN(C)CC4)cc3)nc2n1-c1cccc(C(C)(C)O)n1		human patients	oral, 200 mg once daily, day 17, cycle 1, with: durvalumab 1500 mg iv		AUC(0-10 h)	4.35 µM·h
COC(=O)N[C@@H](C)CNc1nccc(-c2cn(C(C)C)nc2-c2cc(Cl)cc(NS(C)(=O)=O)c2F)n1		human, plasma	oral, single dose, with: diltiazem	reference: compound alone	AUCinf geometric mean ratio	183%
CC1(C)C(/C=C/C=C/C=C2/N(CCCCCC(=O)NCCC(=O)N3Cc4ccccc4C#Cc4ccccc43)c3ccc(S(=O)(=O)O)cc3C2(C)C)=[N+](CCCS(=O)(=O)[O-])c2ccc(S(=O)(=O)O)cc21		C57BL/6 mouse, azido-sugar treated, blood, RBC-conjugated	intravenous, single dose		circulation time	> 35 days
Cc1cc(/C=C/C#N)cc(C)c1Nc1ccnc(Nc2ccc(C#N)cc2)n1		aqueous buffers and water	24 h, independent of pH		saturation solubility	< 1.5 µg/mL
O=c1ccc2c(OCCCCOc3ccccc3)c3ccoc3cc2o1	HPLC-MS	Lewis rat, plasma	oral gavage, 50 mg/kg daily for 6 months, 24 h post-dose		trough plasma concentration	290 ± 120 nM
O=S(=O)(c1ccc(-c2ccc3nccc(Nc4ccncn4)c3c2)cc1)N1CCOCC1		female BALB/c mice, brain	intraperitoneal, 10 mg/kg, 8 h, mean, below LLOQ as zero		brain concentration	0 ng/mL
CCc1c(-c2ccccc2)c(-c2ccccc2)nn1-c1ccccc1-c1cccc(OCC(=O)O)c1		Sprague-Dawley rat, -Brain homogenate	oral, 10 mg/kg, 4 h		concentration	19.4 ng/mL and 9.77 ng/mL
CC(=O)O[C@H]1C(=O)[C@@]2(C)[C@H]([C@H](OC(=O)c3ccccc3)[C@]3(O)C[C@H](OC(=O)[C@H](O)[C@@H](NC(=O)c4ccccc4)c4ccccc4)C(C)=C1C3(C)C)[C@]1(OC(C)=O)CO[C@@H]1C[C@@H]2O	noncompartmental analysis	human cancer patients, plasma	intravenous infusion, 80 mg/m^2, cycle 1 day 1, with: daily oral co-medication		volume of distribution	203 L
Cc1ccc(Sc2ccccc2N2CCNCC2)c(C)c1	measured: AST increased	healthy adult men	oral, 20 mg daily, 12 days		participants with TEAE	0%
C=CC(=O)Nc1cc(Nc2nccc(-c3cn(C4CC4)c4ccccc34)n2)c(OC)cc1N(C)CCN(C)C	bench-top stability	rat plasma	1 ng/mL, 3 h, room temperature	reference: nominal concentration	relative error	-8.9%
CO[C@H]1C[C@@H]2CC[C@@H](C)[C@@](O)(O2)C(=O)C(=O)N2CCCC[C@H]2C(=O)O[C@H]([C@H](C)C[C@@H]2CC[C@@H](OC(=O)NCCOCCOCCOCCOCCOCCOCCOCCOCCC(=O)N3CCc4cc(Cn5nc(-c6ccc7oc(N)nc7c6)c6c(N)ncnc65)ccc4C3)[C@H](OC)C2)C[C@@H](O)[C@H](C)/C=C(\C)[C@@H](O)[C@@H](OC)C(=O)[C@H](C)C[C@H](C)/C=C/C=C/C=C/1C		human, plasma	intravenous, 8 mg, cycle 1 day 15, arithmetic mean		Tmax	57.6 min
CCn1c(=O)c(-c2cc(NC(=O)Nc3ccccc3)c(F)cc2Br)cc2cnc(NC)cc21	measured: investigations	human, mild hepatic impairment	oral, 50 mg single dose		participants with grade ≥ 3 TEAE	37.5%
O=C(Cc1cccnc1)Nc1ccc([C@H]2[C@@H](F)[C@@H](F)C[C@@H](F)[C@H]2F)cc1		cryopreserved human hepatocytes	1 µM		hepatic clearance	6.2 mL/min/kg
NC1(C(=O)N[C@@H](CCO)c2ccc(Cl)cc2)CCN(c2nc[nH]c3nccc2-3)CC1		metastatic CRPC patients	dose not given, grade 3 to 4, treatment-related, all doses, with: enzalutamide 160 mg daily		incidence of Anaemia	0%
CN1CCN(C(=O)c2ccc(C3CCCCC3)cc2)CC1	liver microsome stability	rat liver microsomes	1 µM		hepatic clearance	51 mL/min/kg
CSCC[C@H](NC(=O)[C@H](CCCCN)NC(=O)[C@H](CCCNC(=N)N)NC(=O)[C@H](CO)NC(=O)[C@H](Cc1c[nH]c2ccccc12)NC(=O)[C@H](CCCNC(=N)N)NC(=O)[C@H](CC(C)C)NC(=O)[C@@H](N)CCSC)C(=O)N1CCC[C@H]1C(=O)N[C@@H](CS)C(=O)N[C@H](C(=O)N[C@@H](CO)C(N)=O)C(C)C	12G5 competition, SUP-T1 cells	human plasma	20 µM, 8 h, 37 °C		remaining activity	1 ± 0.3%
Cl.[2H]C([2H])([2H])CC(=O)c1cnc(NC(=O)C2CC2)cc1Nc1cccc(-c2ncn(C([2H])([2H])[2H])n2)c1OC		human, fasted, multiple dose	oral, 20 mg once daily, tablet, day 14, geometric mean		CL/F	18.2 L/h
Cc1c(C(=O)O)ccc2c3n(nc12)[C@@H]1[C@H](C3)N(CC2CC2)[C@@]2(C(=O)Nc3cc(Cl)ccc32)[C@H]1c1cccc(Cl)c1F		CD1 mouse, plasma	po, 1.5 mg/kg		unbound AUC(0-inf)	0.128 µM·h

SMILES	test	system	setting	scale	measurement	value
O=C1NCCc2nc(OCc3cccc(F)c3)ccc21	measured: loss of Placing	Sprague-Dawley rat male	oral, 100 mg/kg, 1 h	direction not given	Irwin test score	0
N#Cc1ccc2c(c1)[C@H]1CCCN(C(=O)c3ccc4[nH]cnc4c3)[C@H]1C2		human, plasma	80 mg once daily, day 7		pre-dose plasma concentration	2080 nmol/L
C=CC(=O)NC1CCN(c2ncc3ncnc(Nc4ccc(Oc5ccc6c(c5)ncn6C)c(C)c4)c3n2)CC1		human, male, plasma	oral, 240 mg single dose, fasted, geometric mean		AUC(0-tz)	47 µM·h
Cc1nc2ccc(F)cc2n1-c1nc(N)c(F)c(Nc2ccc(C(F)(F)F)cc2)n1		human patients, plasma	oral, 300 mg twice weekly, cycles 1 and 2 pooled		dose-normalized AUC(0-inf)	60.1 ng·h/mL/mg
CCN1/C(=C/C(C)=O)Sc2ccc(F)cc21		cynomolgus monkey	oral, 100 mg/kg, 1 h post-dose		mean blood pressure	86 ± 4 mmHg
CN(C(=O)n1cnc(-c2ccc[n+]([O-])c2)c1)[C@H]1CC[C@H](O)CC1		rat, cortex	oral, 10 mg/kg single dose, 4 h		tissue concentration	9.2 ± 0.5 ng/g
Cc1ccc([C@@H]2O[C@H](CO)[C@@H](O)[C@H](O)[C@H]2O)cc1Cc1ccc(-c2ccc(F)cc2)s1	measured: inorganic phosphorus	Japanese type 2 diabetes patients	400 mg, day 2, 24 h urine collection	reference: baseline	urinary phosphate excretion change	162 mg
C[C@@H](N)C1CCN(S(=O)(=O)c2cccc3cnccc23)CC1		healthy volunteers	25 mg, fasted		participants with serious TEAEs	0%
CCOc1c([C@H](C)n2nc(C)c3c(N)ncnc32)cc(Cl)c(F)c1[C@@H]1CNC(=O)C1		patients, monotherapy	oral, 20 mg once daily, cycle 1 day 15		Cmin	178 ± 141 nM
CC(C)C[C@@H]1NC(=O)[C@H](C)N(C)C(=O)[C@H](Cc2ccccc2)NCc2ccc(n2C)CNC1=O	PAMPA	lecithin in dodecane	100 µM, 17 h, pH 6.4, 37 °C		-log Pe	6.3
CN1C(=O)[C@@H](NC(=O)c2nnc(Cc3ccccc3)[nH]2)COc2cccnc21		healthy human, fasted, plasma	oral, 400 mg single dose, geometric mean		Vz/F	90.5 L
O=C(NCc1cc[nH]n1)c1ccc(C2CCCCC2)cc1	liver microsome stability	human liver microsomes	1 µM, without NADPH		hepatic clearance	3.9 mL/min/kg
C[C@@H](c1nc(-c2ccc(C#N)cc2)cs1)[C@](O)(Cn1cncn1)c1cc(F)ccc1F	measured: infections and infestations	healthy human	oral, 200 mg, 13 days, study		TEAE incidence	5.6%
COCCN(C)C(=O)c1ccc([C@H]2[C@@H](F)[C@@H](F)C[C@@H](F)[C@H]2F)cc1	hepatocyte stability	cryopreserved mouse hepatocytes	1 µM		hepatic clearance	64 mL/min/kg
CC(C)(c1ccc(O)cc1)c1ccc(O)cc1		whole cow milk	2000 nM nominal		dose fraction in skim milk	56.7%
COc1ccnc(C(=O)NC(CO)C(=O)O)c1O (racemic)	soil adsorption	soil	pH 6.9, organic carbon 0.8 %		KFoc	737 mL/g
CCC(C)n1ncn(-c2ccc(N3CCN(c4ccc(OCC5COC(Cn6cncn6)(c6ccc(Cl)cc6Cl)O5)cc4)CC3)cc2)c1=O (stereo not shown)		human, plasma	oral, dose not given, day 11 predose, geometric mean		trough plasma concentration	29.9 ng/mL
CC(=O)O[C@H]1C(=O)[C@@]2(C)[C@H]([C@H](OC(=O)c3ccccc3)[C@]3(O)C[C@H](OC(=O)[C@H](O)[C@@H](NC(=O)c4ccccc4)c4ccccc4)C(C)=C1C3(C)C)[C@]1(OC(C)=O)CO[C@@H]1C[C@@H]2O	measured: Vomiting	patients with advanced solid tumours	intravenous, dose not given, grade 1 and 2, possibly related to drug		adverse event incidence	22%
COCCC(=O)Nc1ccc(C2CCCCC2)cc1	hepatocyte stability	cryopreserved rat hepatocytes	1 µM		hepatic clearance	45 mL/min/kg
O=C(Nc1nc2cccc(-c3ccc(CN4CCS(=O)(=O)CC4)cc3)n2n1)C1CC1	measured: pain in extremity	human rheumatoid arthritis patients	oral, 300 mg once daily, 4 weeks, regardless of relatedness		treatment-emergent adverse events	5%

SMILES	test	system	setting	scale	measurement	value
O=C(c1ccc([C@H]2[C@@H](F)[C@@H](F)C[C@@H](F)[C@H]2F)cc1)N1CC(O)C1	liver microsome stability	cynomolgus liver microsomes	1 µM		hepatic clearance	4.9 mL/min/kg
COc1cc2nccc(Oc3ccc(NC(=O)c4cc5c(n(-c6ccccc6)c4=O)CCCC5=O)nc3)c2cc1OC		human patients	oral, dose not given, day 29, with venetoclax 6 mg once daily		AUC(0-10 h)	4.26 µg·h/mL
CNCCOC12CC3(C)CC(C)(CC(Cn4ncc(-c5ccc(N6CCc7cccc(C(=O)Nc8nc9ccccc9s8)c7C6)nc5C(=O)O)c4C)(C3)C1)C2		beagle dog, male, anaesthetised	intravenous bolus, 0.03 mg/kg, 10 min	reference: baseline	dP/dt at 50 change	10%
Oc1cccc(O)c1O	LC-MS/MS	male Ross 308 broilers, serum	oral, dose not given		serum concentration	not detected
CC(C)(C)n1ncc(OCc2ccc(COCCF)cc2)c(Cl)c1=O [fluorine-18 labelled]		human, myocardium	370 MBq		absorbed dose	18.5 to 22.2 mGy
O=C(NCC1CCOCC1)c1ccc([C@H]2[C@@H](F)[C@@H](F)C[C@@H](F)[C@H]2F)cc1	hepatocyte stability	cryopreserved human hepatocytes	1 µM		hepatic clearance	6.2 mL/min/kg
O=C(Nc1cnccc1Cl)N1CCN(Cc2ccc3c(c2)OC(F)(F)O3)CC1	multiple ascending dose	young women	100 mg, treatment-emergent adverse events		hepatic enzyme increased	16.7%
NC[C@@]1(CC(=O)O)[C@@H]2CC[C@H]3C[C@@H]2[C@@H]1C3		humans with severe renal impairment, plasma	dose not given	reference: normal renal function	unbound AUC(0-inf) increase	273%
CNC(=O)c1ccc(-c2cnc3ncc(Cc4ccc5ncccc5c4)n3n2)cc1F	measured: Diarrhea, all grades	cancer patients	oral, 600 mg twice daily, other expansion cohort, any causality		patients with adverse event	22%
CC(=O)N1CC(C(=O)Nc2ccc(C3CCCCC3)cc2)C1	hepatocyte stability	cryopreserved human hepatocytes	1 µM		hepatic clearance	12 mL/min/kg
Cc1cc(C)c(CNC(=O)c2cc(Cl)c3c(c2C)O[C@@](C)([C@H]2CC[C@H](N(C)C)CC2)O3)c(=O)[nH]1	ultracentrifugation	0.1% human alpha-1-acid glycoprotein	5000 ng/mL, 160 min		fu	0.233
Nc1ccn([C@@H]2O[C@H](CO)[C@@H](O)C2(F)F)c(=O)n1	HPLC-UV	human, plasma	800 mg/m^2, median, after paricalcitol		volume of distribution	251 L/m²
Cc1cn(C(=O)c2c(-c3c(Cl)cc(Cl)cc3Cl)noc2C(C)(C)F)c2cccc(/C=C/C(=O)O)c12		human patients	1000 mg bid, cycle 8 day 1		AUC(0-8h)	242 µg·h/mL
CC(C)(C(=O)N1CCOc2c(C#N)cncc2C1)C(F)F	measured: blood creatine phosphokinase increased	healthy humans, both sexes	oral, 40 mg single dose		subjects with TEAE	0%
COc1ccnc(C(=O)NCC(=O)O)c1O	soil adsorption	clay loam soil	pH 7.2, organic carbon 4.4 %		KFoc	159 mL/g
[H]/N=C(/N)c1ccc(NCc2nc3cc(C(=O)N(CCC(=O)O)c4ccccn4)ccc3n2C)cc1		healthy human, plasma	oral, dose not given, dabigatran etexilate dosed, with: vepdegestrant	reference: alone	AUCinf increase	98%
CNCc1ccc(-c2[nH]c3cc(F)cc4c3c2CCNC4=O)cc1		human patients	oral, 600 mg twice daily, grade 2		pulmonary embolism incidence	0%
Cc1ccc2c(c1)C(=O)[C@]1(O)CCN(c3ccc4nc(C)ccc4c3)C1=N2.Cl		rat, plasma	subcutaneous, dose not given, day 7 pre-dose, repeated daily dosing		trough plasma concentration	430 nM

A few entries again:
SMILES	test	system	setting	scale	measurement	value
CNC(=O)c1ccc(-c2cnc3ncc(Cc4ccc5ncccc5c4)n3n2)cc1F	measured: Diarrhea, all grades	cancer patients	oral, 600 mg twice daily, other expansion cohort, any causality		patients with adverse event	22%
O=S(=O)(c1ccc(-c2ccc3nccc(Nc4ccncn4)c3c2)cc1)N1CCOCC1		female BALB/c mice, brain	intraperitoneal, 10 mg/kg, 8 h, mean, below LLOQ as zero		brain concentration	0 ng/mL
CC(=O)N1CC(C(=O)Nc2ccc(C3CCCCC3)cc2)C1	hepatocyte stability	cryopreserved human hepatocytes	1 µM		hepatic clearance	12 mL/min/kg
CN1C(=O)[C@@H](NC(=O)c2nnc(Cc3ccccc3)[nH]2)COc2cccnc21		healthy human, fasted, plasma	oral, 400 mg single dose, geometric mean		Vz/F	90.5 L
CC(=O)O[C@H]1C(=O)[C@@]2(C)[C@H]([C@H](OC(=O)c3ccccc3)[C@]3(O)C[C@H](OC(=O)[C@H](O)[C@@H](NC(=O)c4ccccc4)c4ccccc4)C(C)=C1C3(C)C)[C@]1(OC(C)=O)CO[C@@H]1C[C@@H]2O	noncompartmental analysis	human cancer patients, plasma	intravenous infusion, 80 mg/m^2, cycle 1 day 1, with: daily oral co-medication		volume of distribution	203 L
